{"data": "Assay results of several laboratories", "Ahr": "Aryl hydrocarbon receptor (Ahr, Mus musculus, UniProt P30561)", "CYP1B1": "Cytochrome P450 1B1 (CYP1B1, Homo sapiens, UniProt Q16678)", "CYP2D6": "Cytochrome P450 2D6 (CYP2D6, Homo sapiens, UniProt P10635)", "CYP2B6": "Cytochrome P450 2B6 (CYP2B6, Homo sapiens, UniProt P20813)", "note": "Numbers after ± are the reported error.", "UniProt Q16678, sequence (whole entry, looked up)": "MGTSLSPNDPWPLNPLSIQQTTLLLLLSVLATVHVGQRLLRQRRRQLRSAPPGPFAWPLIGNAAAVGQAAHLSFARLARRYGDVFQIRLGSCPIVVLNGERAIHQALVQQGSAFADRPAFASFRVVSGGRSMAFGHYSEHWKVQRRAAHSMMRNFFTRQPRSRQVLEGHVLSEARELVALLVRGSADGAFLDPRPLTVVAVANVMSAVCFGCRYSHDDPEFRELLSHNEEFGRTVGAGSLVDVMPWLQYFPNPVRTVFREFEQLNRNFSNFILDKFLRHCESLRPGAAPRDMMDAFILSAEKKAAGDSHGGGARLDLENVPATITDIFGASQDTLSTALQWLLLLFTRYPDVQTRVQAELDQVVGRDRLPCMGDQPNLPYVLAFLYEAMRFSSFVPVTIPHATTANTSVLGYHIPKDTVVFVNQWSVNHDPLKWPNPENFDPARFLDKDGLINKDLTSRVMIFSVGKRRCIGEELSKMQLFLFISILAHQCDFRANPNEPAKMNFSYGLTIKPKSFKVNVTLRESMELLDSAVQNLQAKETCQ", "UniProt P30561, sequence (whole entry, looked up)": "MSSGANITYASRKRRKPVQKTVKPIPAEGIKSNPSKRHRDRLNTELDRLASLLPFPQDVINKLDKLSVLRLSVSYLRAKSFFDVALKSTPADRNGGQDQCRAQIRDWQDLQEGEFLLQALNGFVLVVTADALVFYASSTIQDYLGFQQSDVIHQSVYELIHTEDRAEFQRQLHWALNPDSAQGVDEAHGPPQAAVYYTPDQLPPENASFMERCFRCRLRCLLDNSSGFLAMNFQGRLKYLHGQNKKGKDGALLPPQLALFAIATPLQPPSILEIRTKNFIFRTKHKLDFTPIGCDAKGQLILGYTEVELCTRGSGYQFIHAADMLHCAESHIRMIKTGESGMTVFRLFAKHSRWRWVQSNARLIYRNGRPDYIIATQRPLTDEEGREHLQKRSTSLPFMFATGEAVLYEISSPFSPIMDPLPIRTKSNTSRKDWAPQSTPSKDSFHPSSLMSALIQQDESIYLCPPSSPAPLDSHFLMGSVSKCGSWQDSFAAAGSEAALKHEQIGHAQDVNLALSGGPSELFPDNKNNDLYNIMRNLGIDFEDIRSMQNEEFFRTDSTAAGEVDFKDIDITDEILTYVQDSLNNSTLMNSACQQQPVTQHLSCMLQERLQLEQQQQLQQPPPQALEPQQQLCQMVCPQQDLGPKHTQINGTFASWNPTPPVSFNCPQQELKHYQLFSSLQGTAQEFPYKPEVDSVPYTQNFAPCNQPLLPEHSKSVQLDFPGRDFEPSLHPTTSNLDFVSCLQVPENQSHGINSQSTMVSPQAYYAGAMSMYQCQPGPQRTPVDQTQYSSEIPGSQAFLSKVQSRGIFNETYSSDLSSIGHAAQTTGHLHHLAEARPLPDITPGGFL", "UniProt P10635, sequence (whole entry, looked up)": "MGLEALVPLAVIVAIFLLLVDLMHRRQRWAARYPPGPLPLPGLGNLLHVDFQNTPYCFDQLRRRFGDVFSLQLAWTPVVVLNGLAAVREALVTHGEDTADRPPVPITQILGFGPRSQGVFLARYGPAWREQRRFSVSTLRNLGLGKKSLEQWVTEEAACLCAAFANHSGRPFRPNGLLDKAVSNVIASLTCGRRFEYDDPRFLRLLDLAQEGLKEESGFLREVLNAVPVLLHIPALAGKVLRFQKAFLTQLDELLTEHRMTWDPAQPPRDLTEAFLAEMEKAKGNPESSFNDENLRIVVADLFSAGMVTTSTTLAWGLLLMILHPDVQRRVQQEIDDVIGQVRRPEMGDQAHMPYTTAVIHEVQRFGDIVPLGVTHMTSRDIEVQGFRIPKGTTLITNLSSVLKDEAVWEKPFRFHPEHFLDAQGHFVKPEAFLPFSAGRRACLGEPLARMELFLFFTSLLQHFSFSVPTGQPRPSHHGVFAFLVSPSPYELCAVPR", "UniProt P20813, sequence (whole entry, looked up)": "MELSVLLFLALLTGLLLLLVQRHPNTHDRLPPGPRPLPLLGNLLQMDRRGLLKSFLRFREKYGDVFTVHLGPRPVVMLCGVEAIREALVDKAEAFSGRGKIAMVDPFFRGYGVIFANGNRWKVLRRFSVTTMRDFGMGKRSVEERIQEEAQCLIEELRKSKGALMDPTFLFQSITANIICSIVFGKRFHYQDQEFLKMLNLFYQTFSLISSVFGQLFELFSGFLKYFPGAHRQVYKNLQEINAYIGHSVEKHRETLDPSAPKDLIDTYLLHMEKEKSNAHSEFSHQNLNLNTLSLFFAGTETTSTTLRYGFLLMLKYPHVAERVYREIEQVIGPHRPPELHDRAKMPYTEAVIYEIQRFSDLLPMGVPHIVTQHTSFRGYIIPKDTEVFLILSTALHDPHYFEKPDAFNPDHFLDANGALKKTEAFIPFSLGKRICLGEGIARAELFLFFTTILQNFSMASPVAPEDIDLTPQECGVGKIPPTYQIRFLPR", "UniProt P98073, sequence (whole entry, looked up)": "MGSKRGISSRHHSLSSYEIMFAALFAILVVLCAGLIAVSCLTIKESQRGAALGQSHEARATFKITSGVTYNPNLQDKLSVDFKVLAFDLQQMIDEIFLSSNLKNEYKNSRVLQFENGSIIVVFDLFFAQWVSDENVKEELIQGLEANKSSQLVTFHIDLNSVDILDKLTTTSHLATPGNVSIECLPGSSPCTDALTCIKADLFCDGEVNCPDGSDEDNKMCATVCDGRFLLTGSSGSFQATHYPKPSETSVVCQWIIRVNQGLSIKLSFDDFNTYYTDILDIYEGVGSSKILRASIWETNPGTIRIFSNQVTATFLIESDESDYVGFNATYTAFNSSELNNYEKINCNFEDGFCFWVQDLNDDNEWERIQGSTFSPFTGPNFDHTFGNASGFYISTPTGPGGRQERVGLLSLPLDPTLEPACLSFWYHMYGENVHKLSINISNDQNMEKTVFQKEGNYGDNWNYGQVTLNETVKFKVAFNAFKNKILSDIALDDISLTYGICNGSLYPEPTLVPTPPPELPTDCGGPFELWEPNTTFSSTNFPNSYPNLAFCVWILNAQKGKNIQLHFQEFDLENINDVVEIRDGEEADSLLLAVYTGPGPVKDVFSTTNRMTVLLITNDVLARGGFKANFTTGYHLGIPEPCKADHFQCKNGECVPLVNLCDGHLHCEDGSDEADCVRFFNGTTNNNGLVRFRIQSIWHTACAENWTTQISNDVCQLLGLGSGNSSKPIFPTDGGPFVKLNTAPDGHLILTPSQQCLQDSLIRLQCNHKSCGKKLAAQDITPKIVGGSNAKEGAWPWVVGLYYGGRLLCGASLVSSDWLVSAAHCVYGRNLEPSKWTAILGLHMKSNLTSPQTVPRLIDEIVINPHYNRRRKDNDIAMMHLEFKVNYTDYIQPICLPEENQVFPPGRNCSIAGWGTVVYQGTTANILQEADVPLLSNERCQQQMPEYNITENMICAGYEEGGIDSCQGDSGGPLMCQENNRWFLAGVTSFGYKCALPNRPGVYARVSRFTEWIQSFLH", "UniProt P05181, sequence (whole entry, looked up)": "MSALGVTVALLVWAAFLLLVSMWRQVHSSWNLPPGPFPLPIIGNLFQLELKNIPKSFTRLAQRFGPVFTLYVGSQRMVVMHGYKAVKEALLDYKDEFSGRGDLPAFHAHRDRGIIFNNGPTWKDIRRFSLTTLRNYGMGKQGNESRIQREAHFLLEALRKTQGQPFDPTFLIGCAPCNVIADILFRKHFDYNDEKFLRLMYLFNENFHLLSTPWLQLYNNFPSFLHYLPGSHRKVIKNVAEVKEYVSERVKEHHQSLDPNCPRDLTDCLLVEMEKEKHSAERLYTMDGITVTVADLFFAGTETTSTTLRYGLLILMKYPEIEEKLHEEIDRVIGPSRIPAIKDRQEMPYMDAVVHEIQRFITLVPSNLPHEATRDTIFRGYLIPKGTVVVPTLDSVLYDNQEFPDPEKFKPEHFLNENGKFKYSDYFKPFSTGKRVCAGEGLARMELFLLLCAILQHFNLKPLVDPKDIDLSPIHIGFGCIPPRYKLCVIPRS", "UniProt P00747, sequence (whole entry, unmodified, looked up)": "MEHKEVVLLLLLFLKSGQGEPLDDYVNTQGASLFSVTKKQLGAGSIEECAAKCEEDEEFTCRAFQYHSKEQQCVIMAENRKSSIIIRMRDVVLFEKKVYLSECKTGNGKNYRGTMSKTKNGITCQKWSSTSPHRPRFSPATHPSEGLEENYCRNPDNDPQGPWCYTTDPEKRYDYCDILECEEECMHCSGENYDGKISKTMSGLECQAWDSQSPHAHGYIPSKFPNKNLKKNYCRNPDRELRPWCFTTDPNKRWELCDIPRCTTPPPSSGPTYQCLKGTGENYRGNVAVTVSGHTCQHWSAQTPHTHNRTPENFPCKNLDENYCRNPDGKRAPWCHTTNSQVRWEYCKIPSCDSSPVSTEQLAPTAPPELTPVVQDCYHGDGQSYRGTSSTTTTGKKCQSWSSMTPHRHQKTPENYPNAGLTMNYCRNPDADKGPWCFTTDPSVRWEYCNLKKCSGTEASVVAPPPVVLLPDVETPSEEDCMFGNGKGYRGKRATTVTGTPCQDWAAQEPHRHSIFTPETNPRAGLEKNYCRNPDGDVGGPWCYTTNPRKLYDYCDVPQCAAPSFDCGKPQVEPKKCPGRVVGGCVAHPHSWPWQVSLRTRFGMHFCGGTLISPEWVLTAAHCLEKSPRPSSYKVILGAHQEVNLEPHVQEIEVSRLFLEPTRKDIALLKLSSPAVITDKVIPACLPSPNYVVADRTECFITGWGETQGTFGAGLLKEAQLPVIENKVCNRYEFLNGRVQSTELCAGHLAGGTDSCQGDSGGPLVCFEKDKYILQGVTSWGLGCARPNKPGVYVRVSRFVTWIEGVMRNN", "UniProt P47936, sequence (whole entry, looked up)": "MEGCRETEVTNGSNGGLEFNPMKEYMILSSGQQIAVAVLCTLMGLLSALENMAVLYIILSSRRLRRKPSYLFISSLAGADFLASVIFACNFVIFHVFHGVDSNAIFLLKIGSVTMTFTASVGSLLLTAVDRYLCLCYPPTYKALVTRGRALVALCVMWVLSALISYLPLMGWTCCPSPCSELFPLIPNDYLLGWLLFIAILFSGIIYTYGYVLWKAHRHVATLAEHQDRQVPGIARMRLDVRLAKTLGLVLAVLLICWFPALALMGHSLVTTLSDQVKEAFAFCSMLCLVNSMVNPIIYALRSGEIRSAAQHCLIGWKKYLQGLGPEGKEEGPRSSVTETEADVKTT"}
{"Compound": "Oc1ccc(/C=C/c2cc(O)cc(O)c2)cc1", "target or system": "UGT1A9 human", "test": "4'-O-glucuronide formation, substrate", "setting": "pH 7.4", "quantity": "Km", "result": "792 ± 240 µM"}
{"Compound": "O=C(c1c[nH]c2ccccc12)c1nccc2c1[nH]c1ccccc12", "target or system": "Ahr", "test": "reporter gene, activator", "system": "H1L7.5c3 (mouse)", "setting": "6 h", "quantity": "EC50", "result": "7.6 nM"}
{"Compound": "O=[N+]([O-])c1ccc(O)cc1", "target or system": "Cytochrome P450 2E1 (CYP2E1, Homo sapiens, UniProt P05181)", "test": "substrate", "system": "pooled human liver microsomes", "setting": "250 µM, pH 7.4, added enzyme to P450 molar ratio 0.5", "quantity": "hydroxylation rate", "result": "12.9 ± 1.4 min⁻¹"}
{"Compound": "O=S(=O)(O)Oc1ccc(-c2cccc(Cl)c2)cc1Cl", "target or system": "sulfatase, human liver microsomes", "test": "substrate", "setting": "pH 7.4, 37 °C", "quantity": "Km", "result": "15.1 ± 7.1 µM"}
{"Compound": "N[C@@H](CS)C(=O)[O-].N[C@@H](CS)C(=O)[O-].[Hg+2]", "target or system": "ATP-binding cassette sub-family C member 2 (ABCC2, Homo sapiens, UniProt Q92887)", "system": "MRP2 membrane vesicles", "setting": "5 µM, 37 °C, mercuric conjugate", "how to read": "baseline: control vesicles", "quantity": "time to significant uptake", "result": "5 min"}
{"Compound": "Clc1ccc(-c2cc(Cl)c(Cl)c(Cl)c2Cl)cc1", "target or system": "Ahr", "test": "reporter gene, agonist", "system": "Hepa-1c1c7", "setting": "24 h", "quantity": "EC50", "result": "796 ± 661 nM"}
{"Compound": "O=Cc1c(Cc2c[nH]c3ccccc23)[nH]c2ccccc12", "target or system": "Aryl hydrocarbon receptor (AHR, Homo sapiens, UniProt P35869)", "quantity": "EC50", "result": "11 nM"}
{"Compound": "CCCC[C@@H]1NC(=O)[C@H](C(C)C)NC(=O)[C@H](Cc2c[nH]cn2)NC(=O)[C@H]([C@@H](C)CC)NC(=O)[C@H](CC(=O)O)NC(=O)[C@@H](NC(=O)C[C@H](CC(N)=O)NC(=O)[C@@H]2CCCN2C(=O)C[C@H](CCC(=O)O)NC(=O)[C@@H](N)C(C)C)CSSC[C@@H](C(=O)N[C@@H](Cc2ccccc2)C(=O)N[C@H]2CNC[C@@H]2C(=O)N[C@@H](CCCNC(=N)N)C(=O)N[C@H](CC(N)=O)CC(C)C)NC(=O)[C@H](CCC(=O)O)NC(=O)[C@H](Cc2c[nH]c3ccccc23)NC(=O)C[C@H](CCC(=O)O)NC(=O)[C@H](Cc2c[nH]c3ccccc23)NC1=O", "target or system": "Proteinase K (PROK, Engyodontium album, UniProt P06873)", "test": "proteolytic stability", "system": "TBS", "setting": "50 µM, pH 7.5, 5% DMSO, together with: proteinase K 10 µg/mL", "quantity": "half-life", "result": "24 min"}
{"Compound": "CN[C@@](C)(C[18F])C(=O)O", "target or system": "DU-145 tumour model", "system": "host not given, lung", "setting": "30 min, tumour-bearing", "quantity": "tracer uptake", "result": "2.3 %ID/g"}
{"Compound": "Clc1ccc(-c2ccc(Cl)c(Cl)c2Cl)cc1Cl", "target or system": "Ahr", "test": "binding, competitor", "setting": "in vitro expressed receptor, together with: [3H]TCDD", "quantity": "Ki", "result": "1620 nM"}
{"Compound": "C#CCOc1ccccc1-c1ccccc1OCC#C", "target or system": "CYP1B1", "test": "reverse type I spectral binding", "setting": "pH 7.4", "quantity": "Kd", "result": "30000 ± 4500 nM"}
{"Compound": "CCCSc1ccc2nc(NC(=O)OC)[nH]c2c1", "target or system": "CYP2D6", "test": "inhibitor", "system": "human liver microsomes", "setting": "2 µM, pH 7.4, together with: dextromethorphan", "quantity": "inhibition", "result": "< 0%"}
{"Compound": "C#CCOCCc1ccc2ccccc2c1", "target or system": "CYP1B1", "test": "reverse type I spectral binding", "setting": "pH 7.4", "quantity": "Kd", "result": "110000 ± 3100 nM"}
{"Compound": "CC[N+]1=C(C=CC=CC=C2N(CCCCCC(=O)NCCN3C(=O)CC(SC[C@@H](NC(=O)[C@@H](CCCNC(=N)N)NC(=O)[C@@H](CCCNC(=N)N)NC(=O)[C@@H](CCCNC(=N)N)NC(=O)[C@@H](CCCNC(=N)N)NC(=O)[C@@H](CCCNC(=N)N)NC(=O)[C@@H](CCCNC(=N)N)NC(=O)[C@@H](CCCNC(=N)N)NC(=O)[C@@H](CCCNC(=N)N)NC(=O)[C@@H](CCCNC(=N)N)NC(=O)[C@H](CC(C)C)NC(=O)[C@H](CCCCN)NC(=O)[C@H](CC(C)C)NC(=O)[C@H](CCC(N)=O)NC(=O)[C@H](CC(C)C)NC(=O)[C@H](CCCNC(=N)N)NC(=O)CCCCCNC(=O)[C@@H](CCC(=O)O)NC(=O)[C@@H](CCC(=O)O)NC(=O)[C@@H](CCC(=O)O)NC(=O)[C@@H](CCC(=O)O)NC(=O)[C@@H](CCC(=O)O)NC(=O)[C@@H](CCC(=O)O)NC(=O)[C@@H](CCC(=O)O)NC(=O)[C@@H](CCC(=O)O)NC(=O)[C@H](N)CCC(=O)O)C(N)=O)C3=O)c3ccc(S(=O)(=O)O)cc3C2(C)C)C(C)(C)c2cc(S(=O)(=O)[O-])ccc21 (stereo partly shown)", "target or system": "Enteropeptidase (TMPRSS15, Homo sapiens, UniProt P98073)", "test": "substrate", "setting": "5 µM", "quantity": "cleavage", "result": "< 3%"}
{"Compound": "Clc1ccc(-c2cc(Cl)c(Cl)c(Cl)c2Cl)cc1Cl", "target or system": "Ahr", "test": "binding, competitor", "setting": "in vitro expressed receptor, together with: [3H]TCDD", "quantity": "Ki", "result": "284 nM"}
{"Compound": "c1cc2c(cc1[C@H]1OC[C@H]3[C@@H]1CO[C@@H]3c1ccc3c(c1)OCO3)OCO2", "target or system": "rat CYP2C", "test": "mechanism-based inhibitor", "system": "rat liver microsomes", "setting": "concentration not given, 60 min", "quantity": "activity recovery", "result": "no effect"}
{"Compound": "Cc1sc(=NC(=O)C2C(C)(C)C2(C)C)n(CCO[11CH3])c1C", "target or system": "Cannabinoid receptor 2 (Cnr2, Mus musculus, UniProt P47936)", "system": "CD1 mouse, control, brain regions", "setting": "60 min, radiolabelled compound", "quantity": "brain distribution", "result": "~0.3 %ID/g tissue"}
{"Compound": "CNC(=O)Oc1cc(C)c(SC)c(C)c1", "target or system": "CYP2D6", "test": "inhibitor", "system": "human liver microsomes", "setting": "2 µM, pH 7.4, together with: dextromethorphan", "quantity": "inhibition", "result": "< 0%"}
{"Compound": "CC(C)C=Cc1c(O)cc(/C=C/c2ccc(O)c(O)c2)cc1O", "target or system": "UGT1A7 human", "test": "4'-O-glucuronide formation, substrate", "setting": "pH 7.4", "quantity": "Km", "result": "52.9 ± 3.2 µM"}
{"Compound": "CC(C)C[C@H](NC(=O)[C@H](CCC(=O)O)NC(=O)[C@H](C)NC(=O)[C@H](CCC(=O)O)NC(=O)[C@H](CCC(=O)O)NC(=O)[C@H](Cc1c[nH]cn1)NC(=O)[C@H](CCCNC(=N)N)NC(=O)[C@H](CCC(=O)O)NC(=O)[C@H](CC(N)=O)NC(=O)[C@H](CCCCN)NC(=O)[C@H](CC(C)C)NC(=O)[C@H](CCCNC(=N)N)NC(=O)[C@H](CCC(N)=O)NC(=O)[C@H](CC(C)C)NC(=O)[C@H](CCC(=O)O)NC(=O)[C@H](C)NC(=O)[C@H](CC(=O)O)NC(=O)[C@H](C)NC(=O)[C@@H](NC(=O)[C@H](CC(C)C)NC(=O)[C@H](CCCCN)NC(=O)[C@H](CCC(=O)O)NC(=O)[C@@H](NC(=O)[C@H](CO)NC(=O)CN)C(C)C)[C@@H](C)O)C(=O)N[C@@H](CCC(=O)O)C(=O)N[C@@H](CCCNC(=N)N)C(=O)N[C@@H](CC(C)C)C(=O)N[C@@H](CCCCN)C(=O)N[C@@H](CO)C(=O)N[C@@H](CCC(=O)O)C(=O)N[C@@H](Cc1ccc(O)cc1)C(=O)O", "target or system": "Plasminogen, kringle 2 domain (PLG, Homo sapiens, UniProt P00747, C188G/E240D/L256Y)", "test": "circular dichroism", "setting": "30 µM, pH 7.4, room temperature, together with: titrated with PLG", "quantity": "maximum α-helix content", "result": "74%"}
{"Compound": "S=P(N1CC1)(N1CC1)N1CC1", "target or system": "CYP2B6", "test": "enzyme activity, inhibitor", "system": "pooled human liver microsomes", "setting": "concentration not given", "quantity": "remaining activity", "result": "10.8%"}
{"Compound": "C[C@]1(C(=O)[O-])CSC(c2ncc(O)cc2O)=N1.[Na+]", "target or system": "Fe(III)", "test": "Job's plot", "setting": "pH 7.4, total 1.0 mM", "quantity": "Job's plot maximum mole fraction", "result": 0.669}
{"Compound": "C#CCOc1ccc(-c2ccc(OCC#C)cc2)cc1", "target or system": "CYP1B1", "test": "reverse type I spectral binding", "setting": "pH 7.4", "quantity": "Kd", "result": "23000 ± 4300 nM"}
{"Compound": "O=C1Nc2ccc(Cl)cc2[C@@](C#CC2CC2)(C(F)(F)F)O1", "target or system": "CYP2B6", "system": "healthy human, plasma", "setting": "oral, 50 mg, together with: midazolam 2 mg, no ritlecitinib", "quantity": "Cmax", "result": "300 ng/mL"}
{"Compound": "CC(C)(O)c1ccccc1CC[C@@H](SCC1(CC(=O)O)CC1)c1cccc(/C=C/c2ccc3ccc(Cl)cc3n2)c1", "target or system": "CYP2D6", "test": "inhibitor", "system": "human liver microsomes", "setting": "2 µM, pH 7.4, together with: dextromethorphan", "quantity": "inhibition", "result": "< 0%"}
{"note": "Repeated from above:"}
{"Compound": "Clc1ccc(-c2cc(Cl)c(Cl)c(Cl)c2Cl)cc1Cl", "target or system": "Ahr", "test": "binding, competitor", "setting": "in vitro expressed receptor, together with: [3H]TCDD", "quantity": "Ki", "result": "284 nM"}
{"Compound": "c1cc2c(cc1[C@H]1OC[C@H]3[C@@H]1CO[C@@H]3c1ccc3c(c1)OCO3)OCO2", "target or system": "rat CYP2C", "test": "mechanism-based inhibitor", "system": "rat liver microsomes", "setting": "concentration not given, 60 min", "quantity": "activity recovery", "result": "no effect"}
{"Compound": "Cc1sc(=NC(=O)C2C(C)(C)C2(C)C)n(CCO[11CH3])c1C", "target or system": "Cannabinoid receptor 2 (Cnr2, Mus musculus, UniProt P47936)", "system": "CD1 mouse, control, brain regions", "setting": "60 min, radiolabelled compound", "quantity": "brain distribution", "result": "~0.3 %ID/g tissue"}
{"Compound": "CNC(=O)Oc1cc(C)c(SC)c(C)c1", "target or system": "CYP2D6", "test": "inhibitor", "system": "human liver microsomes", "setting": "2 µM, pH 7.4, together with: dextromethorphan", "quantity": "inhibition", "result": "< 0%"}
